Measurements collected from several papers.
Lines come from different studies, so protocols differ. ± gives the spread as reported.
OPRK1: Kappa-type opioid receptor (OPRK1, Homo sapiens, UniProt P41145)

The chains behind the UniProt entries cited, without tags or fusion partners.
UniProt P41145, whole entry: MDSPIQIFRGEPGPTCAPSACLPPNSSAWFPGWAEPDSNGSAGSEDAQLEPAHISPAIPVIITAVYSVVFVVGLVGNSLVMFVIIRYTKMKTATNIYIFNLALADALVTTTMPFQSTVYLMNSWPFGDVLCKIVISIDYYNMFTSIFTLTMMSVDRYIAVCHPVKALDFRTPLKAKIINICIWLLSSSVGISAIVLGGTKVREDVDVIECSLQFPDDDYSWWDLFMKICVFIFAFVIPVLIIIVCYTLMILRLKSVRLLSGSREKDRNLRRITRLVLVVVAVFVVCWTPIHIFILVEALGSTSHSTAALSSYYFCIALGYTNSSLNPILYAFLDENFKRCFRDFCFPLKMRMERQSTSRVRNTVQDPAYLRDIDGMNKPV
UniProt P41145, whole entry E297K: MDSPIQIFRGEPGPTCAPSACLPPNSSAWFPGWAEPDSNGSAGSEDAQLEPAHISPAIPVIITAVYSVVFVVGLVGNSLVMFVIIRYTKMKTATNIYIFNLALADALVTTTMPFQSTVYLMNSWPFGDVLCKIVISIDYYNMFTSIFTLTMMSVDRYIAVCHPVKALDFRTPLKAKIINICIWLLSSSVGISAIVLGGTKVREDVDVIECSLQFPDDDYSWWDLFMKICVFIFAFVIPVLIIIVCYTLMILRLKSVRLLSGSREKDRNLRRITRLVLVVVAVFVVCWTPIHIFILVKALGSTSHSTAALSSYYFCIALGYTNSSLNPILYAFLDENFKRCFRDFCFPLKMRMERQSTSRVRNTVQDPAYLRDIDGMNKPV
UniProt Q96QS6, whole entry: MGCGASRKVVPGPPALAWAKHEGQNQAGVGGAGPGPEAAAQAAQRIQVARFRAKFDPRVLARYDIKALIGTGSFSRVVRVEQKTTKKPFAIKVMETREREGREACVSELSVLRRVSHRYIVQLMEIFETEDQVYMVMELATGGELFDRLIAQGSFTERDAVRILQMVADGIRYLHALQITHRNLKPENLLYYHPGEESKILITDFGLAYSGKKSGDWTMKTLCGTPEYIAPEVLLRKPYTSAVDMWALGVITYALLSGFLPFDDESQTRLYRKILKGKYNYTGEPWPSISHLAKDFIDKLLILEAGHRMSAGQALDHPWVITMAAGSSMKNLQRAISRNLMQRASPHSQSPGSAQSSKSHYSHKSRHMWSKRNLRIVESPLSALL
UniProt P42685, whole entry: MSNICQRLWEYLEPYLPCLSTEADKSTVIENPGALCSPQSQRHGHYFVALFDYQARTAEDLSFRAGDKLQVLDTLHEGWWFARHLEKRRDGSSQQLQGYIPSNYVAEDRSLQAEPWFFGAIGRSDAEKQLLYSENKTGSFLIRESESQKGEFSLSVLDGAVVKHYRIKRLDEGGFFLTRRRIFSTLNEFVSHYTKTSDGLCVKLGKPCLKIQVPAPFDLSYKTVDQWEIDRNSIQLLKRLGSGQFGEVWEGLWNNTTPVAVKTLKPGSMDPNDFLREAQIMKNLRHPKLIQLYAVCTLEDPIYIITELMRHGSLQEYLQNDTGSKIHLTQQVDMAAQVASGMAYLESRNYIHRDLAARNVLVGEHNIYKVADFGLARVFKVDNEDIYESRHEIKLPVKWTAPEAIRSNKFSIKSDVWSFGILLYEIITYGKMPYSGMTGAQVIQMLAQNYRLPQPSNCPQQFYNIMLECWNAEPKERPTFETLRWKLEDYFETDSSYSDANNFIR

Molecule = [3H]diprenorphine; target = Kappa-type opioid receptor (OPRK1, Homo sapiens, UniProt P41145, E297K); test = radioligand, saturation binding; system = N2a cell membranes; setting = 1 h, pH 7.4, room temperature, together with: [3H]diprenorphine; measurement = Kd; result = 0.13 ± 0.03 nM
Molecule = methoxymethyl salvinorin B; target = OPRK1; test = receptor internalization, agonist, on-cell western; system = N2a; setting = 1 h, human receptor; measurement = EC50; result = 3.2 nM
Molecule = CCN1CCN(Cc2ccc(NC(=O)c3ccc(C)c(/C=C/c4cnc5[nH]ccc5c4OC)c3)cc2C(F)(F)F)CC1; target = Serine/threonine-protein kinase H2 (PSKH2, Homo sapiens, UniProt Q96QS6); test = kinase-CDC37 interaction, inhibitor; system = human cells; setting = 5 µM; how to read = relative to: vehicle; measurement = log2 fold change; result = 0.215
Molecule = CO[C@]12CC[C@@]3(C[C@@H]1[C@@H](O)c1ccccc1)[C@H]1Cc4ccc(O)c5c4[C@@]3(CCN1CC1CC1)[C@H]2O5; target = OPRK1; test = G-protein activation, agonist; measurement = EC50; result = 0.36 ± 0.03 nM
Molecule = COC(=O)[C@@H]1C[C@H](OC(=O)CSC#N)C(=O)[C@H]2[C@@]1(C)CC[C@H]1C(=O)O[C@H](c3ccoc3)C[C@]21C; target = OPRK1; test = agonist; measurement = EC50; result = 0.077 ± 0.016 nM
Molecule = CN(C(=O)Cc1cccc2occc12)[C@H]1CC[C@@]2(CCCO2)C[C@@H]1N1CCCC1; target = OPRK1; test = agonist; setting = human receptor; measurement = EC50; result = 7.5 nM
Molecule = CO[C@]12CC[C@@]3(C[C@@H]1[C@@](C)(O)C(C)(C)C)[C@H]1Cc4cc(Br)c(O)c5c4[C@@]3(CCN1CC1CC1)[C@H]2O5; target = OPRK1; test = radioligand binding; system = CHO; setting = together with: [3H]U69593; measurement = Ki; result = 35.5 ± 3.9 nM
Molecule = CC[C@](O)([C@H]1C[C@@]23C=C[C@]1(OC)[C@@H]1Oc4c(O)ccc5c4[C@@]12CCN(CC1CC1)[C@@H]3C5)C(C)(C)C; target = OPRK1; test = G-protein activation, agonist; measurement = EC50; result = 122 ± 63 nM
Molecule = CO[C@]12CC[C@@]3(C[C@@H]1[C@](C)(O)CC(C)(C)C)[C@H]1Cc4ccc(O)c5c4[C@@]3(CCN1CC1CC1)[C@H]2O5; target = OPRK1; test = radioligand binding; system = CHO; setting = together with: [3H]U69593; measurement = Ki; result = 1.59 ± 0.25 nM
Molecule = CN(C(=O)Cc1ccc(Cl)c(Cl)c1)C1CCC2(CCCO2)CC1N1CCCC1 (stereo not drawn); target = OPRK1; test = receptor internalization, agonist, on-cell western; system = N2a; setting = 1 h, human receptor; measurement = EC50; result = 68 nM
Molecule = CC#C/C(=N\OC[C@H]1COCCN1)c1ccc2ncnc(Nc3ccc(OCc4cccc(F)c4)c(Cl)c3)c2c1; target = Tyrosine-protein kinase FRK (FRK, Homo sapiens, UniProt P42685); test = kinase activity; setting = 10 µM; measurement = inhibition; result = 9.2%
Molecule = CC[C@@](O)(c1ccccc1)[C@H]1C[C@@]23CC[C@]1(OC)[C@@H]1Oc4c(O)ccc5c4[C@@]12CCN(CC1CC1)[C@@H]3C5; target = OPRK1; test = G-protein activation, agonist; measurement = EC50; result = 249 ± 120 nM
